{"sequences": {"note": "Amino acid sequences for entries named in this document (tags omitted). Residues count along the entry.", "UniProt Q99797, 36-713 limits assumed": "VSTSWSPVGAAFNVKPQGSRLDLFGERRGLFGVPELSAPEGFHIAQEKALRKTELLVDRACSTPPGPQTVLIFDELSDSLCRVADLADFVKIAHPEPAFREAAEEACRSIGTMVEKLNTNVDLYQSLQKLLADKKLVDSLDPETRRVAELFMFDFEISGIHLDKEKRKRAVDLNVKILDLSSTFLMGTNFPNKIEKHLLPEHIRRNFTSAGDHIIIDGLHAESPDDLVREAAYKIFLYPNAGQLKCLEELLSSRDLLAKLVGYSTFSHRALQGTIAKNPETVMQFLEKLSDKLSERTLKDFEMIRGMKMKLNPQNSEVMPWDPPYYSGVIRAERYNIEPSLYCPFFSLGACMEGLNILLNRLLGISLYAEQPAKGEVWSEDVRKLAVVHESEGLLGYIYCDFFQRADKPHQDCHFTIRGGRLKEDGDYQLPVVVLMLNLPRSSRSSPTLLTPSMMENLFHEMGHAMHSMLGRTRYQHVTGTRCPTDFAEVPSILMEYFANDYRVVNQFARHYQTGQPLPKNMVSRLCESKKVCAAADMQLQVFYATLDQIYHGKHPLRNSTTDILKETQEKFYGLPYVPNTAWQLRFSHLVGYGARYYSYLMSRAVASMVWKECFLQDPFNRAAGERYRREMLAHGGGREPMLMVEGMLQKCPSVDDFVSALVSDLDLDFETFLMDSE", "UniProt Q9UBN7, whole entry": "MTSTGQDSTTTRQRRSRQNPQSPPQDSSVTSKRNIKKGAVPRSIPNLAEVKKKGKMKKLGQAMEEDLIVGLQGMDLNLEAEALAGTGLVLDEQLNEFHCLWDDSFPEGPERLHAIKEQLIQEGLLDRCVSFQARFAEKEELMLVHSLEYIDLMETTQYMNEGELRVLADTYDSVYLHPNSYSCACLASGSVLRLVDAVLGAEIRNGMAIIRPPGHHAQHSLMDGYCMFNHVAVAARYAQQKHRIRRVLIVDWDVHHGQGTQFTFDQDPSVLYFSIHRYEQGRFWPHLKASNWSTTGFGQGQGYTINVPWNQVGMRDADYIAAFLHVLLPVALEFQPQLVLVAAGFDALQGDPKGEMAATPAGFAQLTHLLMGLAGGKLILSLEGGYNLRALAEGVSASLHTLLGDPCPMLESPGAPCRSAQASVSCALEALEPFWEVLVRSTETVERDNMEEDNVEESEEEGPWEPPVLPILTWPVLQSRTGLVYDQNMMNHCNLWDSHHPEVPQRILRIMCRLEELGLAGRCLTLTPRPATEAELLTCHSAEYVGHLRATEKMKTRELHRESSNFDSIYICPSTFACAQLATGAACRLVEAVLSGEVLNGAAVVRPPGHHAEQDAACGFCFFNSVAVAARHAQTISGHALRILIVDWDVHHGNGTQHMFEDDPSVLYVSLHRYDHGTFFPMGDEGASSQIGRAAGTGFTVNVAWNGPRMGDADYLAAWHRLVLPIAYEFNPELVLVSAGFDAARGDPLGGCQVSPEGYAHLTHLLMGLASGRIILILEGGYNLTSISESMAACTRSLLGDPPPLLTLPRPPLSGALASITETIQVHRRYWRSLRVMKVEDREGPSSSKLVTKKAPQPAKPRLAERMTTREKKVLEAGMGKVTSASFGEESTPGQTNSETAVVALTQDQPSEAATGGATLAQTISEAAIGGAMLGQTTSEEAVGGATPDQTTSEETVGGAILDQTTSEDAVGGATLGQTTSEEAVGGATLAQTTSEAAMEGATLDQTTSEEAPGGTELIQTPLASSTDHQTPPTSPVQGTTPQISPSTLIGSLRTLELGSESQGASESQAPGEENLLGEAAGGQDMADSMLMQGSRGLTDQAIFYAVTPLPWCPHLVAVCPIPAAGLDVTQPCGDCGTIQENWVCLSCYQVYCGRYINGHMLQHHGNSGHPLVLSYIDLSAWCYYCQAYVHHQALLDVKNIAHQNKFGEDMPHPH", "UniProt P51452, 28-179 limits assumed": "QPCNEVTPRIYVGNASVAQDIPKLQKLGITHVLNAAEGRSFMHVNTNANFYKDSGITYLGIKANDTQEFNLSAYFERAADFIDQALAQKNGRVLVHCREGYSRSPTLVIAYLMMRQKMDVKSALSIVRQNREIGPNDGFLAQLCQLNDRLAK", "UniProt O15379, whole entry": "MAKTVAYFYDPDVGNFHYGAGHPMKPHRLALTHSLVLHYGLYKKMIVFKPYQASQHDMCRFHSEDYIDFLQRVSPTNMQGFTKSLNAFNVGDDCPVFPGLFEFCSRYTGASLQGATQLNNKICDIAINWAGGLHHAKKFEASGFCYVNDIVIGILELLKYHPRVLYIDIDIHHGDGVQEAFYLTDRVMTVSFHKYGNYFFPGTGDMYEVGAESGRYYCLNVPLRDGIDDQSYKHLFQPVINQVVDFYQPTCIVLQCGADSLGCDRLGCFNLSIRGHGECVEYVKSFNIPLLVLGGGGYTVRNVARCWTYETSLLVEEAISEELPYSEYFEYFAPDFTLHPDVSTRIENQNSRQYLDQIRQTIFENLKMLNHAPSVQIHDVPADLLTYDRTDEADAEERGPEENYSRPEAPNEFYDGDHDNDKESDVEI", "UniProt Q9Y618, 389-480 partner limits assumed": "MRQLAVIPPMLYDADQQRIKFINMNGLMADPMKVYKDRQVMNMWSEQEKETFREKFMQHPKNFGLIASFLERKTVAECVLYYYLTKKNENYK", "UniProt Q9NTG7, whole entry": "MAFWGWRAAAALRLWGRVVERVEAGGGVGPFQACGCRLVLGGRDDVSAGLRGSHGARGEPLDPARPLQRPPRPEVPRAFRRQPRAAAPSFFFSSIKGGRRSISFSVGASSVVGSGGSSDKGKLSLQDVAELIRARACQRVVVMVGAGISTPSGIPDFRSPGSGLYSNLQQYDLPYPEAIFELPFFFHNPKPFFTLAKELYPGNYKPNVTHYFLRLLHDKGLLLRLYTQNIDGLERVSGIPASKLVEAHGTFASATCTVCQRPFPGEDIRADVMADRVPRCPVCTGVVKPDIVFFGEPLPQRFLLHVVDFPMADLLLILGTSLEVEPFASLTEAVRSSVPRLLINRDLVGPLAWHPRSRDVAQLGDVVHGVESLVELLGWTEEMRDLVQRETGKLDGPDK", "UniProt Q9UDY8, 329-566 limits assumed": "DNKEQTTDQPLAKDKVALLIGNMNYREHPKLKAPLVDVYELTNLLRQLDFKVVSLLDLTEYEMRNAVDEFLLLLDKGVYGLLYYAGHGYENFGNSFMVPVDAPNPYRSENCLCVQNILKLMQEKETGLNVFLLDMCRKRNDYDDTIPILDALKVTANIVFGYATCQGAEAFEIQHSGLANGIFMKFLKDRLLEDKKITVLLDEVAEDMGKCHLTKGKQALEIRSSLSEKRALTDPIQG", "UniProt Q99K82, whole entry": "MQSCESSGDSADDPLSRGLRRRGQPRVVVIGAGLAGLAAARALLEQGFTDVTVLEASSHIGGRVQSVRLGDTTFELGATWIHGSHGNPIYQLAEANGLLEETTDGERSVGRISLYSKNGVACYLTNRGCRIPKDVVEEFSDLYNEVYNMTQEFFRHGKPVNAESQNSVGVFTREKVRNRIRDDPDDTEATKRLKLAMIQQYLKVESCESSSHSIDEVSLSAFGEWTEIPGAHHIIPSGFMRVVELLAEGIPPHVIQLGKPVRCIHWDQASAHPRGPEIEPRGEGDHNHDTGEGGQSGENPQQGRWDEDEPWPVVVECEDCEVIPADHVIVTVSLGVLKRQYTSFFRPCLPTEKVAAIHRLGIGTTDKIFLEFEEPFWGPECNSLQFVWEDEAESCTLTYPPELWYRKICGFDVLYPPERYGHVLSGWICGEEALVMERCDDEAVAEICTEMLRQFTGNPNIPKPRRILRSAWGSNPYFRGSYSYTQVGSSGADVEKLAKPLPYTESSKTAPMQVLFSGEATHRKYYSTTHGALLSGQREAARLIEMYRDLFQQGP"}, "data": "Experimental data of several laboratories", "action": "substrate", "MIPEP": "Mitochondrial intermediate peptidase (MIPEP, Homo sapiens, UniProt Q99797)", "HDAC6": "Protein deacetylase HDAC6 (HDAC6, Homo sapiens, UniProt Q9UBN7)", "note": "Each line is one published result; not all experiments were run side by side. Numbers after ± are the reported error."}
{"Structure (SMILES)": "CC(=O)N[C@@H](Cc1c[nH]cn1)C(=O)N[C@H](C(=O)NCC(=O)N[C@@H](Cc1ccccc1)C(=O)N[C@@H](CC(C)C)C(=O)N[C@H](C(=O)N[C@@H](CCC(=O)O)C(=O)N[C@@H](Cc1cc(=O)oc2cc(OP(=O)(O)O)ccc12)C(=O)N[C@H](C(=O)N[C@@H](C)C(=O)N[C@H](C(=O)N[C@@H](CCCNC(=N)N)C(=O)N[C@@H](Cc1c[nH]c2ccccc12)C(N)=O)[C@@H](C)O)C(C)C)[C@@H](C)OP(=O)(O)O)[C@@H](C)O", "target": "DUSP3 (Homo sapiens, UniProt P51452)", "assay": "peptide hydrolysis", "setting": "pH 6.0, 37 °C, 250 nM enzyme, with: ERK activation-loop peptide", "Km [µM]": 48.9}
{"Structure (SMILES)": "CCCC(=O)NCCCC[C@H](NC(=O)CNC(=O)[C@H](CC(C)C)NC(C)=O)C(=O)Nc1ccc2c(C)cc(=O)oc2c1", "target": "Histone deacetylase 3/Nuclear receptor corepressor 2 (HDAC3/NCoR2) (Homo sapiens, UniProt O15379+Q9Y618)", "assay": "fluorogenic trypsin-coupled", "setting": "pH 7.4, 25 °C", "Km [µM]": "< 10"}
{"Structure (SMILES)": "CC(=O)N[C@@H](CCC(N)=O)C(=O)N[C@H](C(=O)N[C@@H](C)C(=O)N[C@@H](CCCNC(=N)N)C(=O)N[C@@H](CCCCNC(=O)CCc1ccc(N=Nc2ccc(N(C)C)cc2)cc1)C(=O)N[C@@H](CO)C(=O)N[C@H](C(=O)NCC(=O)NCC(=O)NCCCNC(=S)Nc1ccc2c(c1)C(=O)OC21c2ccc(O)cc2Oc2cc(O)ccc21)[C@@H](C)O)[C@@H](C)O", "target": "SIRT3 (Homo sapiens, UniProt Q9NTG7)", "assay": "enzyme activity, plate reader kinetics", "setting": "60 nM enzyme, with: 500 µM NAD+", "Km [µM]": "7.7 ± 0.21"}
{"Structure (SMILES)": "CSCC[C@H](NC(=O)[C@H](CC(C)C)NC(=O)[C@H](CC(N)=O)NC(=O)c1ccccc1N)C(=O)N[C@@H](CCCCN)C(=O)N[C@@H](CCCCN)C(=O)N[C@@H](CO)C(=O)N[C@H](C(=O)N[C@@H](CCCCNc1ccc([N+](=O)[O-])cc1[N+](=O)[O-])C(N)=O)[C@@H](C)O", "target": "MIPEP", "assay": "FRET peptide hydrolysis", "Km [µM]": 1.3}
{"Structure (SMILES)": "CC(=O)N[C@@H](CC(C)C)C(=O)N[C@@H](CCCNC(=N)N)C(=O)N[C@@H](CO)C(=O)N[C@@H](CCCNC(=N)N)C(=O)Nc1ccc2c(CC(N)=O)cc(=O)oc2c1", "target": "MALT1 (Homo sapiens, UniProt Q9UDY8)", "assay": "fluorogenic peptide hydrolysis", "setting": "pH 7.5, catalytic domain, sodium citrate 0.9 M", "Km [µM]": 12.6}
{"Structure (SMILES)": "CC(=O)NCCCC[C@H](NC(=O)CNC(=O)[C@H](CCCNC(=N)N)NC(C)=O)C(=O)N[C@@H](Cc1c[nH]c2ccccc12)C(N)=O", "target": "HDAC6", "setting": "25 °C", "Km [µM]": "60 ± 30"}
{"Structure (SMILES)": "CC(C)C[C@H](NC(=O)[C@@H]1CCCN1C(=O)[C@H](CCC(N)=O)NC(=O)CNC(=O)[C@H](CO)NC(=O)[C@H](CCCNC(=N)N)NC(=O)[C@H](Cc1ccccc1)NC(=O)[C@H](CC(N)=O)NC(=O)[C@H](CCCNC(=N)N)NC(=O)[C@@H](NC(=O)c1ccccc1N)C(C)C)C(=O)N[C@@H](CCC(N)=O)C(=O)N[C@@H](CC(N)=O)C(=O)N[C@@H](CCCCN)C(=O)N[C@H](C(=O)N[C@@H](CCC(N)=O)C(=O)NCCNc1ccc([N+](=O)[O-])cc1[N+](=O)[O-])C(C)C", "target": "MIPEP", "assay": "FRET peptide hydrolysis", "Km [µM]": 1.8}
{"Structure (SMILES)": "Cc1cc(=O)oc2cc(NC(=O)[C@H](Cc3ccc(O)cc3)NC(=O)[C@@H](NC(=O)[C@H](CC(C)C)NC(=O)[C@H](CC(C)C)NC(=O)CCC(=O)O)C(C)C)ccc12", "target": "PSMB5 (Homo sapiens, UniProt P28074)", "assay": "chymotrypsin-like activity", "setting": "pH 7.8, 37 °C, with: oligomeric Aβ(1-42) 5 µM", "Km [µM]": "38 ± 9.1"}
{"Structure (SMILES)": "CC(=O)NCCCC[C@H](NC(=O)CNC(=O)[C@H](CCCNC(=N)N)NC(C)=O)C(=O)Nc1ccc2c(C)cc(=O)oc2c1", "target": "HDAC6", "setting": "25 °C", "Km [µM]": "11 ± 3"}
{"Structure (SMILES)": "NCCCNCCCCNCCCNCc1ccc2ccccc2c1", "target": "Smox (Mus musculus, UniProt Q99K82)", "assay": "Amplex Red/HRP", "setting": "pH 7.5, 37 °C", "Km [µM]": "15 ± 5"}
{"note": "For quick reference, copied from above:"}
{"Structure (SMILES)": "CC(C)C[C@H](NC(=O)[C@@H]1CCCN1C(=O)[C@H](CCC(N)=O)NC(=O)CNC(=O)[C@H](CO)NC(=O)[C@H](CCCNC(=N)N)NC(=O)[C@H](Cc1ccccc1)NC(=O)[C@H](CC(N)=O)NC(=O)[C@H](CCCNC(=N)N)NC(=O)[C@@H](NC(=O)c1ccccc1N)C(C)C)C(=O)N[C@@H](CCC(N)=O)C(=O)N[C@@H](CC(N)=O)C(=O)N[C@@H](CCCCN)C(=O)N[C@H](C(=O)N[C@@H](CCC(N)=O)C(=O)NCCNc1ccc([N+](=O)[O-])cc1[N+](=O)[O-])C(C)C", "target": "MIPEP", "assay": "FRET peptide hydrolysis", "Km [µM]": 1.8}
{"Structure (SMILES)": "Cc1cc(=O)oc2cc(NC(=O)[C@H](Cc3ccc(O)cc3)NC(=O)[C@@H](NC(=O)[C@H](CC(C)C)NC(=O)[C@H](CC(C)C)NC(=O)CCC(=O)O)C(C)C)ccc12", "target": "PSMB5 (Homo sapiens, UniProt P28074)", "assay": "chymotrypsin-like activity", "setting": "pH 7.8, 37 °C, with: oligomeric Aβ(1-42) 5 µM", "Km [µM]": "38 ± 9.1"}
